Assay results from different studies.
A part holds a random share of what one study measured. Positions count from the first letter of the parent shown.

Study 1
Target: CCNB3, cyclin fold, Cln2 fusion (human)
Method: yeast growth competition, sequencing
Sample: yeast
Setting: weak parent motif
Relative to: not given
Direction: higher = stronger binding
Starting sequence: E2F3 docking peptide (human); PPAKRRLELGESG
| Variant | normalised enrichment score |
| --- | --- |
| K4A | 0.165 |
| R5A L7A | -0.00321 |
| R5A | 0.251 |
| P1A | 0.342 |
| R5K L9F | 0.628 |
| E11A | 0.492 |
| E8A | 0.315 |
| R5K | -0.71 |
| P2A | 0.299 |

Study 2
Target: ABI1, truncated, D143A, DHFR fusion (Arabidopsis thaliana)
Method: DHFR PCA, deep sequencing
Sample: yeast
Setting: methotrexate growth selection, single substitutions
Added: (+)-ABA 0.032 µM
Relative to: wild-type fitted maximum
Direction: higher = stronger binding
Starting sequence: PYL1, truncated, DHFR fusion (Arabidopsis thaliana); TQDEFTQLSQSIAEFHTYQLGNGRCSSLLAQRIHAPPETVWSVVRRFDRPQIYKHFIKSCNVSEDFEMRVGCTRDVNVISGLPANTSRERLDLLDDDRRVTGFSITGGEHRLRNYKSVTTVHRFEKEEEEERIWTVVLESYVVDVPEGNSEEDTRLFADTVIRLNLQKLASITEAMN; partner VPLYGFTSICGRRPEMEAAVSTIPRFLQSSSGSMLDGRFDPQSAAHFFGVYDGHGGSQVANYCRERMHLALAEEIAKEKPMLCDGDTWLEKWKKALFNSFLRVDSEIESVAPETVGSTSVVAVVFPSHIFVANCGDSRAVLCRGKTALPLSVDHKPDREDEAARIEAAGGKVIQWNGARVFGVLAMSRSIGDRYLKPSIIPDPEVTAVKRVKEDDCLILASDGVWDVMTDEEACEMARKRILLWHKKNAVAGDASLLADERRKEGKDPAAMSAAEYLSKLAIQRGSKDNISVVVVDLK
| Variant | relative binding score [%] |
| --- | --- |
| D75N | 20 |
| I12S | -0.187 |
| A13K | 37.3 |
| G108F | -5.96 |
| R98I | 4.45 |
| D144R | -1.52 |
| L28G | 3.57 |
| E151D | 9.54 |
| T73P | -0.615 |
| V143S | -2.48 |
| R46Y | -5.26 |
| Y18R | -1.3 |
| R99A | 0.525 |
| I133C | 44.3 |
| F5M | 37 |
| L156Y | -3.48 |
| E130S | 38.2 |

Study 3
Target: RNA binding protein fox-1 homolog 2, RRM domain, GST-SBP tag (RBFOX2, Homo sapiens, UniProt O43251-10, residues 100-194)
Method: RNA Bind-n-Seq
Form: RNA
Sample: in vitro
Concentration: 365 nM
Setting: natural RNA segment, single round, ends assumed
Relative to: no-protein control
Direction: higher = stronger binding
Construct (chain): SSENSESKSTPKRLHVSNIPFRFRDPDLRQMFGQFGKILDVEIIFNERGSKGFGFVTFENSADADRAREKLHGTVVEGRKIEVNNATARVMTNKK
| Oligonucleotide | RBNS enrichment (R) |
| --- | --- |
| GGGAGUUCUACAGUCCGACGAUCCAACAGUACCUCUCUUCUAAUGGGCUUCAGUCCUCCACUGAGGCAGAAUCUCUGCUGUGGGGAGAGAGAACAAACUGGAUGCUAUUGUGAGACGGGAGGGUGGAGUGAGAUGGAAUUCUCGGGUGCCAA | 0.631 |
| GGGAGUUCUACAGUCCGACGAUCAUAAGUUCAAGGUCAUUCUUAUCUAUAUAAUGAGUUUAAGGCAGUCUAAGCUACAUGAGACCCUGUUGAGAGAAAGAGACAGAAAGGCAUGCACGUGCGCGUGUGUGCACUGGAAUUCUCGGGUGCCAA | 0.219 |
| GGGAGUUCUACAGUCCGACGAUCAUGCACAGAGCUUGAGCAAAGGCAUGAAGUCCCUGACAUUGUUUUCCUUUUUGUCUCAGCAUAUAGUAUUAAGAUGCCUAGAAAUAGGACUCUAUUGUUCCCUCUUGUAUUGGAAUUCUCGGGUGCCAA | 0.724 |
| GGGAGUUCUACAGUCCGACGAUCACCCAAUUAUAUUCUAAUGUGAAAAUAUUAGCAUAAAUAGGUGAAAUUGCUCUUCUGAAAAUUGUGUCCUGUGCUUUUAGACUUUGGAGUUCCACAGAUAGUAAAAAUAUUGGAAUUCUCGGGUGCCAA | 0.36 |
| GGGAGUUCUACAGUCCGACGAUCCCAGACUGGUACUUGAGUCCUUCUCAUGGGUGGGGUGAUUGCCUCUUCUCAUCAGGAGCCAGGAGAGAGGGGGACAGAUAGGAGGUGGCCCAUAGGAGCAGUCCCGCUGCUGGAAUUCUCGGGUGCCAA | 0.443 |
| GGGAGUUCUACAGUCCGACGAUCGAACACCUUGGUUCUGGUUAAACAGCUGUACUUUUGAUAGCUGUGCCAGGAAGGGUUAGGACCAACUACAAAUUAAUGUUGGUUGUCAAAUGUAGUGUGUUUCCCUAACUUGGAAUUCUCGGGUGCCAA | 0.254 |
| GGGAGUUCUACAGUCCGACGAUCAGAUAAUCUUGCGUUUUUCGUCAUCUUAUUCCAGUUCUGUGGGGGAUGAGUUUUUUUGUGGGUUGCUUUUUCUUCAGUGCUAAGAAAGUUCCCUCCAACAGGAACUCUCUUGGAAUUCUCGGGUGCCAA | 0.571 |
| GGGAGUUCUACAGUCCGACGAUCUUUAAGUAGUGACUAAGAUGAGAGGUUAUUGAAAAGUCAAGAACUAGUAGCAAUAGCAGAGAGAGCUGUAAAUUCUCAGGUCCUCCUAGACUUAACCAAAUCUGAGUGCCUGGAAUUCUCGGGUGCCAA | 0.487 |

Study 4
Target: Histone acetyltransferase KAT6A, winged helix 1, GST fusion (KAT6A, Homo sapiens, UniProt Q92794, residues 1-85)
Method: protein binding microarray
Form: double-stranded DNA, one strand shown
Sample: in vitro
Concentration: not given
Setting: 8-mer, flanks averaged, mean of 2 arrays, mostly near background
Relative to: not given
Direction: higher = stronger binding
Residues (chain): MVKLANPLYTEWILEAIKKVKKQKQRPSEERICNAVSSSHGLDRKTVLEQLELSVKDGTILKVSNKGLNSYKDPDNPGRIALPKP
| Oligonucleotide | E-score |
| --- | --- |
| GATTGCGC | 0.333 |
| AGACGGCA | 0.277 |
| CCTACAAC | -0.157 |
| ATGTGTTA | -0.139 |
| ATATTTGC | -0.0593 |
| ATCAATAA | -0.198 |
| GCACCGCA | 0.243 |
| CGGCCTGA | 0.24 |
| CGCTAGCG | 0.333 |
| ATGGTTAG | -0.19 |
| CCAACGCG | 0.33 |
| ATGAATAC | 0.028 |
| TGATTCAA | -0.064 |
| AGTACTGC | 0.104 |
| AGTGCTCG | -0.0991 |
| GATAGTAC | 0.0329 |
| GAATGAAA | -0.0713 |
| CTATCATC | -0.0255 |
| ACAGGGAG | -0.0542 |
| AGAAAGTA | -0.133 |
| GAGATTTA | -0.0662 |
| GGGATGGA | -0.111 |

Repeated from above (study 2):
| Variant | relative binding score [%] |
| --- | --- |
| E130S | 38.2 |
| V143S | -2.48 |
| I133C | 44.3 |
| R46Y | -5.26 |
| R98I | 4.45 |
| T73P | -0.615 |
| D75N | 20 |
| Y18R | -1.3 |
| R99A | 0.525 |
